Measured values collected from several papers.
Lines come from different studies, so protocols differ.

Compound	system	setting	Tmax
Cc1ncc2n1-c1ccc(Cl)cc1C(c1ccccc1F)=NC2	healthy human volunteers, plasma	oral, 5 mg single dose, median, with: water	≤ 0.5 h
Cc1ncc2n1-c1ccc(Cl)cc1C(c1ccccc1F)=NC2	human CYP3A5*3/*7, serum	oral, with: ketoconazole 400 mg	0.5 h
CN(C)CCc1c[nH]c2ccccc12	healthy human, plasma	intravenous infusion, 9 to 21.5 mg, median across cohorts	~0.167 h
O[C@H]1CCCN[C@@H]1CCCn1cnc2c(Cl)c(Cl)ccc21	healthy human volunteers, plasma	oral, 200 mg, day 1, median	3 h
CCC(=O)C(C[C@H](C)N(C)C)(c1ccccc1)c1ccccc1	human, plasma	oral, 11 mg	3 h
CC[C@@]1(O)C(=O)OCc2c1cc1n(c2=O)Cc2cc3c(CN(C)C)c(O)ccc3nc2-1	human patients	oral, 2.5 mg daily, 5 days, cycle 2 day 5, median, with: pazopanib 800 mg daily	2 h
COc1ccc(C[C@@H]2NC(=O)[C@H]([C@@H](C)O)NC(=O)[C@@H]3[C@@H]4CCN3C(=O)[C@@H]3Cc5cn(c6ccc(F)cc56)CCCCCCN(Cc5ccc(cc5)CCNC(=O)[C@]5(C)CCCN5C2=O)C(=O)CCC(=O)N[C@@H](C)C(=O)N[C@H](CNC(=O)CCCCC[N+](C)(C)C)C(=O)N[C@@H](Cc2cccc(c2)CNC(=O)CO4)C(=O)N3)cc1	fasted healthy humans, plasma	oral, 300 mg single dose, with 1800 mg Labrasol, median	1.5 h
O=c1[nH]c(Cc2ccccn2)nc2c1cnn2C1CCOCC1	healthy male human, plasma	oral, 10 mg, median	0.75 h
CCCCCOc1ccc(-c2cc(-c3ccc(C(=O)N[C@H]4C[C@@H](O)[C@@H](O)NC(=O)[C@@H]5[C@@H](O)[C@@H](C)CN5C(=O)[C@H]([C@H](O)CC(N)=O)NC(=O)[C@H]([C@H](O)[C@@H](O)c5ccc(O)c(OS(=O)(=O)O)c5)NC(=O)[C@@H]5C[C@@H](O)CN5C(=O)[C@H]([C@@H](C)O)NC4=O)cc3)no2)cc1	human children aged 6-11 years, plasma	intravenous, 4.5 mg/kg once daily, day 7, mean	2.1 h

For quick reference, copied from above:
Compound	system	setting	Tmax
CN(C)CCc1c[nH]c2ccccc12	healthy human, plasma	intravenous infusion, 9 to 21.5 mg, median across cohorts	~0.167 h
